Measurements gathered from unrelated publications.
Lines come from different studies, so protocols differ. “And” joins repeats or separate records; there may be more than shown. Numbers after ± are the reported error.
STK17A: Serine/threonine-protein kinase 17A (STK17A, Homo sapiens, UniProt Q9UEE5)
UniProt P06276, sequence (whole entry, looked up): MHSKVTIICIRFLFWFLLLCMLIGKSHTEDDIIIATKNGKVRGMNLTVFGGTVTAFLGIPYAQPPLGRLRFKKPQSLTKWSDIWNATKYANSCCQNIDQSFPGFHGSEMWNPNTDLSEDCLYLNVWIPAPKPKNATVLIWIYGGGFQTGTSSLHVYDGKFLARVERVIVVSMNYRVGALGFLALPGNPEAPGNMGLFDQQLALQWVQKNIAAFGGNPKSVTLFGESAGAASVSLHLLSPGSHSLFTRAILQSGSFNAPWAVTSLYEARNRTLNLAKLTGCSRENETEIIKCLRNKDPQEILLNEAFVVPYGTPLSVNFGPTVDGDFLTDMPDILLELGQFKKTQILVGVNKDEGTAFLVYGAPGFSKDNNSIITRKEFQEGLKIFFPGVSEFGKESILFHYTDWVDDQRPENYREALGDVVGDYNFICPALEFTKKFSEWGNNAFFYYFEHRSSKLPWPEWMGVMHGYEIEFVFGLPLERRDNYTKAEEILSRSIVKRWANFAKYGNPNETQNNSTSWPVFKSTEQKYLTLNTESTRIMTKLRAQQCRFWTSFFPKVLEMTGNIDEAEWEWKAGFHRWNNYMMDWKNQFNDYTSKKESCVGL
UniProt D0VWV4, sequence (whole entry, looked up): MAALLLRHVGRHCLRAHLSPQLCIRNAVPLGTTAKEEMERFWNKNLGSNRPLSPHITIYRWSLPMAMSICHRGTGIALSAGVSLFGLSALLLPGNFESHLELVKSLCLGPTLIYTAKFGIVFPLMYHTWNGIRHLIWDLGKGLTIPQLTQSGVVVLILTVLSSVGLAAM
UniProt A5GZW8, sequence (whole entry, looked up): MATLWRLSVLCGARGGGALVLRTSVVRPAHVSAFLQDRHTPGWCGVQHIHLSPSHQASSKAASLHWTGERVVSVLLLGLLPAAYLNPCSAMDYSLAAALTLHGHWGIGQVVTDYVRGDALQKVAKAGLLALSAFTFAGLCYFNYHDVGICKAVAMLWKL
UniProt Q007T0, sequence (whole entry, looked up): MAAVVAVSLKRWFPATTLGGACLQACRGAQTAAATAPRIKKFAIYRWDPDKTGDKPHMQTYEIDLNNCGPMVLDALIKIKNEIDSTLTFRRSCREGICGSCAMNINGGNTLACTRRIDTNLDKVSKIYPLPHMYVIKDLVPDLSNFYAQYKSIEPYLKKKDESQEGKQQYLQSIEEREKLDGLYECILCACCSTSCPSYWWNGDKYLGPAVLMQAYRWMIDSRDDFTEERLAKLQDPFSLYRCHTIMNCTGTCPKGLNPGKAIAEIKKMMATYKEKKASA
UniProt Q9UEE5, sequence (whole entry, looked up): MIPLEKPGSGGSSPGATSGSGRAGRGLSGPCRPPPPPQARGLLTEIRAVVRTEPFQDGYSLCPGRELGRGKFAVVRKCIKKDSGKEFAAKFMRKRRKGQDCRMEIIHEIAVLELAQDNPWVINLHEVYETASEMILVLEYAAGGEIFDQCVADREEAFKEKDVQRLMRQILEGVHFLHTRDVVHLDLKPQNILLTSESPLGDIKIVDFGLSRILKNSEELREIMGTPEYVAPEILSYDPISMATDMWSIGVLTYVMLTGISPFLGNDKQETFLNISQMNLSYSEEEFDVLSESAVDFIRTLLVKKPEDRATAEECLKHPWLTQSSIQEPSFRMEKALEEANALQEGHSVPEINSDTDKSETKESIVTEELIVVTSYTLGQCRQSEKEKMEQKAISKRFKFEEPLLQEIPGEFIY
UniProt P00942, sequence (whole entry, unmodified, looked up): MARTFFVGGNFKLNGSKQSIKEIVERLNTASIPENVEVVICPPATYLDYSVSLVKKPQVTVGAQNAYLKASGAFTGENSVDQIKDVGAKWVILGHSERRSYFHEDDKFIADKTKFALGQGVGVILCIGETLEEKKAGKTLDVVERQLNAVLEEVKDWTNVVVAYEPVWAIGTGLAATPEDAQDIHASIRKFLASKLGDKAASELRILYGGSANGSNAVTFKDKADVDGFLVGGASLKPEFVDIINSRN
UniProt P04843, sequence (whole entry, looked up): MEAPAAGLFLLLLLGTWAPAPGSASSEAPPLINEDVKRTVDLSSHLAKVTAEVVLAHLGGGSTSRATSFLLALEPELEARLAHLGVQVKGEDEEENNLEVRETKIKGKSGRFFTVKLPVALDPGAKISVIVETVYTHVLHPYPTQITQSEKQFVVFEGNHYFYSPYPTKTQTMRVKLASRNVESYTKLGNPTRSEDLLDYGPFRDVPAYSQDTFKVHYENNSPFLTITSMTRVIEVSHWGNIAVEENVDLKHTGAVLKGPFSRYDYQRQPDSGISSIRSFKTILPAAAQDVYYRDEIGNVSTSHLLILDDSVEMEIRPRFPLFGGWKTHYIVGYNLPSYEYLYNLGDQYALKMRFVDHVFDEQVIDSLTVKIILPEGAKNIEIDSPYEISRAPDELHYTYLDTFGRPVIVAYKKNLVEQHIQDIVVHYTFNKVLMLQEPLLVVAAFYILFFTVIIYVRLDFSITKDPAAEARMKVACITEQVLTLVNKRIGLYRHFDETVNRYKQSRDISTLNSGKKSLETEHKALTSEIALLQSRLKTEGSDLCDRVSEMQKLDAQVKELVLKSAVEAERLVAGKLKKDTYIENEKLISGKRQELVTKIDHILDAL
UniProt P09104, sequence (whole entry, looked up): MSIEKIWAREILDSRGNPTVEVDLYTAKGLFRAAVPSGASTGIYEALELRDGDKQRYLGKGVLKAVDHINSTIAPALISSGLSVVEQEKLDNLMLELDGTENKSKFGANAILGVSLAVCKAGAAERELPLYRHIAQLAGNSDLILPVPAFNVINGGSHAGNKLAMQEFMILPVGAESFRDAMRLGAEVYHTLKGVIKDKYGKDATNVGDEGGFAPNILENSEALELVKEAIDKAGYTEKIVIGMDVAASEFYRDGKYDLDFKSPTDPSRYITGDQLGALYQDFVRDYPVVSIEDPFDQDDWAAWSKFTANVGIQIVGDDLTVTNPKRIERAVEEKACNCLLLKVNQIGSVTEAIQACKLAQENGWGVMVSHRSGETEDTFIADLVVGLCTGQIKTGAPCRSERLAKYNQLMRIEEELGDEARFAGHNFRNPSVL
UniProt P35462, sequence (whole entry, looked up): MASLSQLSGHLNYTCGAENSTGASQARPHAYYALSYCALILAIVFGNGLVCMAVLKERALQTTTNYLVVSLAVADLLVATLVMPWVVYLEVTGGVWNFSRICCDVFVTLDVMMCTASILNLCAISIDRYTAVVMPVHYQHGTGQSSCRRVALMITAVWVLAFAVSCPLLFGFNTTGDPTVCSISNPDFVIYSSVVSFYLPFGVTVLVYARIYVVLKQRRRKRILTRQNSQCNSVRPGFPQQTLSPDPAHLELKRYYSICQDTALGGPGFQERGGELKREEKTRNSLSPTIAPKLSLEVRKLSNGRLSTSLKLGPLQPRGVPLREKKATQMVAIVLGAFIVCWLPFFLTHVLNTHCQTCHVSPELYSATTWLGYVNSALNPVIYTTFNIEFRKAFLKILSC
UniProt P32239, sequence (whole entry, looked up): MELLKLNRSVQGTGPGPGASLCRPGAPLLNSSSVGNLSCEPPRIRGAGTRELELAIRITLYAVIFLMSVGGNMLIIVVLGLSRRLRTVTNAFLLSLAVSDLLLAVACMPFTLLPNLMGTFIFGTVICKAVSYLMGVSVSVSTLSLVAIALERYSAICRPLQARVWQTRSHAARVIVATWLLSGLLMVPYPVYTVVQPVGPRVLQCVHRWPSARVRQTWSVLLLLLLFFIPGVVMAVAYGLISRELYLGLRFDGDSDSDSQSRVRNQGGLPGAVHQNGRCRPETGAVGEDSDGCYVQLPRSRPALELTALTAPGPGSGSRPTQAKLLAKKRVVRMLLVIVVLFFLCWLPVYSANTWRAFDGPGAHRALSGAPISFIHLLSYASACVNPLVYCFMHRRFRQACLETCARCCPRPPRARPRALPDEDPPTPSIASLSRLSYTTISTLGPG
UniProt Q13163, sequence (whole entry, looked up): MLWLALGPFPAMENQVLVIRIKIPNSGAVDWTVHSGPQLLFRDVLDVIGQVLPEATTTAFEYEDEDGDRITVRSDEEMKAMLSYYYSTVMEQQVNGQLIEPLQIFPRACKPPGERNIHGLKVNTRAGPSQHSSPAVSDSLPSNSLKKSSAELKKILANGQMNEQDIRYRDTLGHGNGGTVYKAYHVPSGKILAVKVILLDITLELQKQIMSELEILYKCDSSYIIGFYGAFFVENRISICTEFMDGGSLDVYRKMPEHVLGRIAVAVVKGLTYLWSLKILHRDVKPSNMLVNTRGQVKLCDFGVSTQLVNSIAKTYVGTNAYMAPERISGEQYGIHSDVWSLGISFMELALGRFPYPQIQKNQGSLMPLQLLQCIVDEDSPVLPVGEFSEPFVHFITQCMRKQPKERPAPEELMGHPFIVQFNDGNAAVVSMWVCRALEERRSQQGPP
UniProt Q05941, sequence (whole entry, looked up): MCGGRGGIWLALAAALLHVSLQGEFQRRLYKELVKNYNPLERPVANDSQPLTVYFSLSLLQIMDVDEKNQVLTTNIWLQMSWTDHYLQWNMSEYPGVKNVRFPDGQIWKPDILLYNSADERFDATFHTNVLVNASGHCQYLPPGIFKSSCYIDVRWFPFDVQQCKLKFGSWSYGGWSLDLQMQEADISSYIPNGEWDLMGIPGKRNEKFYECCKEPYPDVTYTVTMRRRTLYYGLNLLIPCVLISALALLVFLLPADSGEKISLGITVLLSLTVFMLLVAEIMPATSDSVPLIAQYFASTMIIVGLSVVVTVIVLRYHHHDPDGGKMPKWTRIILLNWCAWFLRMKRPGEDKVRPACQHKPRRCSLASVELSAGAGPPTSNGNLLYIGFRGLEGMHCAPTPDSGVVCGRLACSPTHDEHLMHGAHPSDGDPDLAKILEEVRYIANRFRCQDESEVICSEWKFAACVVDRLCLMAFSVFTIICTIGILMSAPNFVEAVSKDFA
UniProt P22629, sequence (whole entry, looked up): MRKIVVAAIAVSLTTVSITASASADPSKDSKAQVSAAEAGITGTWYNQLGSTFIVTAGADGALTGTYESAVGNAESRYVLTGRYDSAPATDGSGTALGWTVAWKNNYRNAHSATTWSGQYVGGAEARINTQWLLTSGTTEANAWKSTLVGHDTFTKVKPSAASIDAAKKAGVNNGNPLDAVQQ

With Cc1cn([C@H]2C[C@H](O)[C@@H](COP(=O)(O)OP(=O)(O)OP(=O)(O)O)O2)c(=O)[nH]c1=O the kcat was 0.189 ± 0.037 s⁻¹ (Gag-Pol polyprotein, reverse transcriptase (gag-pol, Human immunodeficiency virus type 1 group M subtype B, UniProt P04585, K653N); nucleotide misincorporation, steady-state kinetics; K66N RT, together with: matched template/primer, template T).
C=C(CN(C(=O)c1c(C(F)F)nn(C)c1F)C1CC1)c1ccc(Cl)cc1Cl has a reaction velocity of 0.00687 µM/s and 0.00556 µM/s and 0.00571 µM/s (SDHD/SDHC/SDHB (Sus scrofa, UniProt A5GZW8+D0VWV4+Q007T0); enzyme activity, inhibitor, DCIP reduction; pig; 0.4 µM, together with: DCIP 40 µM).
For NP(N)(=O)NC(=O)c1ccc(F)cc1, the efficacy was -106 ± 0.34% (Cholinesterase (BCHE, Homo sapiens, UniProt P06276); concentration not given, Triton).
Under “probe binding remaining”, O=C(O)c1ccc2nc(-c3cc(Cl)cc(Cl)c3)oc2c1 is recorded as 16% and 19.6% and 13.9% (Transthyretin (TTR, Homo sapiens, UniProt P02766); fluorescent probe exclusion; human serum; 10 µM, 1 days, ratio 6:00:00).
CC1=CC(=O)C(C)=C(C)C1=O — result for “P+QA− recombination rate”: 1.47 s⁻¹ (Reaction center protein M chain, QA site (pufM, Cereibacter sphaeroides, UniProt P0C0Y9); charge recombination; Rhodobacter sphaeroides, LDAO detergent solution; pH 7.8, 298 K, quinone reconstituted in QA site).
O=C1C(P(=O)(O)O)CC(O)N1O (centres unmarked) gave a thermal shift of roughly 15 °C (Gamma-enolase (ENO2, Homo sapiens, UniProt P09104); recombinant protein; 25 µM, protein 225 nM).
O=C1[O][Pt]2([NH][C@@H]3CCCC[C@H]3[NH]2)[O]C1=O — result for potentiation: “inactive” (Chrna7 (Rattus norvegicus, UniProt Q05941); potentiator; concentration not given, holding potential -80 mV, together with: acetylcholine 30 µM).
The specific binding of CCN(CC)CCCC[C@H](NC(=O)[C@H](CC(C)C)NC(=O)[C@H](C)NC(=O)[C@H](Cc1ccccc1)NC(=O)c1ccc(C(C)(C)C)cc1)C(=O)N[C@@H](CO)C(=O)OC is reported as 104% (AGTR1 (Homo sapiens, UniProt P30556); antagonist, radioligand binding; 10 µM; baseline: control binding).
CN1CCN(c2cc(-c3ccncc3)c(-c3ccc4ccccc4c3)nn2)CC1 gave an activation of -0.2% (GRM1 (Homo sapiens, UniProt Q13255); agonist, FLIPR; 12.5 µM).
With [2H]c1c([2H])c([C@]2([2H])CCCN2C(=O)C(C)(C)Oc2ccc3cn[nH]c3c2)c([2H])c([2H])c1C([2H])([2H])[2H] the remaining binding was 74% (ULK1 (Homo sapiens, UniProt O75385); KINOMEscan; 1 µM; baseline: DMSO control).
O=C(c1ccc(Cl)cc1)N1CCN2C(=O)N(OC(=O)N3CCOc4ccccc43)C(=O)C2C1 (centres unmarked) — result for “probe labelling ratio”: 1.45 (Peptidyl-prolyl cis-trans isomerase B (Homo sapiens, UniProt P23284); MS-based ABPP; SW-620 conditioned medium; 10 µM, 1 h, 37 °C, mean protein ratio; baseline: compound over DMSO).
O=C(O)COP(=O)(O)O gave a Ki ratio of 50 (TPI1 (Saccharomyces cerevisiae, UniProt P00942, Y208S); enzyme activity, competitive inhibitor, GPDH/NADH-coupled; pH 7.5, 25 °C, ionic strength 0.1 NaCl, together with: glyceraldehyde 3-phosphate substrate; baseline: mutant over wild type).
For Nc1ncc(-c2nc(N3CCOCC3)nc(N3CCOCC3)n2)c(C(F)F)n1, the remaining binding was 104% (sodium channel site 2; radioligand binding, antagonist ligand; 10 µM; baseline: control).
For Nc1ncnc2c1ncn2[C@@H]1O[C@H](COP(=O)(O)OP(=O)(O)O)[C@@H](O)[C@H]1O, the ΔS was 15.2 cal/mol/K (Cell cycle histidine kinase CckA, G318A; cytoplasmic region (Caulobacter vibrioides, UniProt Q9X688, G318A); binding, ITC; together with: without c-di-GMP).
CN[C@@H]1C[C@H]2O[C@@](C)([C@@H]1OC)n1c3ccccc3c3c4c(c5c6ccccc6n2c5c31)C(=O)NC4 has a ΔTm of 1.5 °C (AKT1 (Homo sapiens, UniProt P31749); binder, NanoLuc thermal shift; permeabilized HeLa, Nluc fusion).
Clc1ccc(-c2cc(Cl)ccc2Cl)cc1 gave a maximum activity of 23% (Androgen receptor (AR, Homo sapiens, UniProt P10275); reporter gene, antagonist; 40 µM, together with: DHT 2 nM; baseline: DHT 2 nM).
With COc1ccc(N2C(=O)N(c3c(C)cccc3Cl)Cc3cnc(Nc4ccc(C5CCN(C)CC5)cc4OC)nc32)nc1 the inhibition was 68% (FGFR1 (Homo sapiens, UniProt P11362); kinase activity; 0.5 µM).
Cc1[nH]c(C)c(S(=O)(=O)Nc2ccc(S(=O)(=O)F)c(Cl)c2)c1C(=O)N1CCC(F)(F)C1 gave an Imax of 100 ± 1% (DRD3 (Homo sapiens, UniProt P35462); β-arrestin recruitment, agonist, PathHunter; baseline: dopamine).
C[C@@H](O)[C@H](N)C(=O)O has a Km of 5800 µM (ilvA (Escherichia coli, UniProt P04968, F352A); 2-ketobutyrate formation, substrate, steady-state kinetics).
The inhibition of O=C(Nc1cccnn1)N1CCC(=Cc2cccc(Oc3ccc(C(F)(F)F)cn3)c2)CC1 is reported as 15% (STK17A; kinase activity, inhibitor; 10 µM, human).
Under “dissociation rate constant”, CC[C@H](C)[C@@H]1NC(=O)[C@H](C(C)C)NC(=O)[C@H](Cc2ccc(O)cc2)NC(=O)[C@H](Cc2ccccc2)NC(=O)[C@H](CCC(N)=O)NC(=O)[C@@H]2CCCN2C(=O)[C@H](Cc2c[nH]cn2)NC(=O)[C@H](Cc2ccc(O)cc2)NC(=O)[C@H](Cc2c[nH]cn2)NC(=O)[C@@H](NC(=O)[C@H](C)N)CSSC[C@@H](C(=O)N[C@@H](CO)C(=O)NCC(N)=O)NC1=O is recorded as 1.1e-08 s⁻¹ (Streptavidin (Streptomyces avidinii, UniProt P22629); surface plasmon resonance; pH 7.4, 25 °C, 2% DMSO, 0.005% Tween-20, 1:1 model).
NCCc1c[nH]c2ccc(O)cc12 has a Km of 120 ± 100 µM (AANAT1 cattle; substrate, DTNB colorimetric; together with: acetyl-CoA).
With CCCCCCCCCCCCc1ccc([C@H]2CC[C@H]([N+](C)(C)CCC)CC2)cc1.[I-] the Ki/Km ratio was 1.3 (SPHK1 (Homo sapiens, UniProt Q9NYA1); inhibitor, radiometric flash-plate; cell lysate; together with: sphingosine 10 µM).
The inhibition of O=C(Nc1cnccc1Cl)N1CCN(Cc2ccc3c(c2)OC(F)(F)O3)CC1 is reported as -8% (STK17A; kinase activity, inhibitor; 10 µM, human).
The agonist score of CC[C@H](C)[C@H]1O[C@]2(C=C[C@@H]1C)C[C@@H]1C[C@@H](C/C=C(\C)[C@@H](O[C@H]3C[C@H](OC)[C@@H](O[C@H]4C[C@H](OC)[C@@H](O)[C@H](C)O4)[C@H](C)O3)[C@@H](C)/C=C/C=C3\CO[C@@H]4[C@H](O)C(C)=C[C@@H](C(=O)O1)[C@]34O)O2 is reported as 0.86 (GABA-A receptor; alpha-1/beta-2/gamma-2 (Rattus norvegicus, UniProt P18508+P62813+P63138); membrane potential, agonist, QP-DHM fluorescence; HEK293 expressing GABAA; 10 µM; baseline: 10 µM GABA, direction not given).
The Km of C[C@H]1CCCC(=O)CCC/C=C/c2cc(O)cc(O)c2C(=O)O1 is reported as 88.5 ± 7.1 µM (lcc5 (Coprinopsis cinerea, UniProt Q6VMB9); substrate, HPLC; Coprinopsis cinerea, 0.1 M phosphate buffer; pH 7.5, 45 °C, no mediator).
The selectivity ratio of N#C[Se]CCCCOc1ccc2c(-c3ccccc3)cc(=O)oc2c1 is reported as greater than 338 (CA12 (Homo sapiens, UniProt O43570); stopped-flow CO2 hydration; baseline: Ki CA I over Ki CA XII).
With C[C@H]1CN(c2n[nH]c3nc(N[C@H]4CC[C@H](NS(=O)(=O)CCC(F)(F)F)CC4)ncc23)CCO1 the remaining binding was 1.03 (Dolichyl-diphosphooligosaccharide--protein glycosyltransferase subunit 1 (Homo sapiens, UniProt P04843); Kinobeads competition, refers to: RPN1; 0.032 µM, unit not given; baseline: vehicle).
CCOC(=O)COc1ccc2c(=O)c3ccccc3oc2c1 has a reaction velocity of 0.0029 a.u. (ache (Electrophorus electricus, UniProt O42275); enzyme activity; 1.68 µM, together with: substrate 3.45 mM; higher = faster reaction).
COc1cc(N)c(Cl)cc1C(=O)NC1CN2CCC1CC2 (centres unmarked) — result for “log2 fold change”: 0.296 (Adhesion G protein-coupled receptor D2 (ADGRD2, Homo sapiens, UniProt Q7Z7M1); β-arrestin recruitment, TANGO luminescence, refers to: GPR144; concentration not given; baseline: basal luminescence).
The apparent Vmax of O=C1CN(C(=O)CCn2ccnc2)CC(O)CN1CCc1ccccc1 (centres unmarked) is reported as 0.28 ± 0.03 µM/min (Cholinesterase (BCHE, Homo sapiens, UniProt P06276); inhibitor; 1.0 µM).
CN(C)[C@@H](CCOc1cccc2ccccc12)c1ccccc1 gave an efficacy of -89.5 ± 11.2% (Cholinesterase (BCHE, Homo sapiens, UniProt P06276); concentration not given, Triton).
With COc1cc(Nc2ncc(F)c(Nc3ccc4c(n3)NC(=O)C(C)(C)O4)n2)cc(OC)c1OC the inhibition was 100% (MAP2K5 (Homo sapiens, UniProt Q13163); binding, KINOMEscan; 10 µM, MEK5 kinase).
For NC(=O)c1cc[n+](CC2=C(C(=O)O)N3C(=O)[C@@H](NC(=O)[C@@H](c4ccccc4)S(=O)(=O)[O-])[C@H]3SC2)cc1, the kinact/KI was 85 ± 6.5 M⁻¹ s⁻¹ (Penicillin-binding protein 1A (pbpA, Streptococcus pneumoniae, UniProt Q8DR59); inhibitor).
Oc1ccc(/C=C/c2cc(O)cc(O)c2)cc1 gave a ∆H of -10.2 ± 0.406 kcal/mol (O-methyltransferase (Sorghum bicolor, UniProt A0A1B6PFV1, W279A); isothermal titration calorimetry; apo protein).
For CN(C(=O)n1cnc(-c2ccc[n+]([O-])c2)c1)C1CCCCC1, the inhibition was 4% (CCKBR (Homo sapiens, UniProt P32239); radioligand binding; 10 µM).
C=C1[C@@H]2CC[C@@]3(C)[C@H](c4ccoc4)OC(=O)C[C@]13O[C@H]1CC(=O)C(C)(C)[C@H](CC(=O)OC)[C@]12C gave an efficacy of -73.1 ± 16.6% (Cholinesterase (BCHE, Homo sapiens, UniProt P06276); concentration not given, Triton).
For CCN(C)C(=O)Oc1ccc(/C=C/C(=O)NC2CCN(Cc3ccccc3)CC2)cc1OC, the selectivity ratio was 1.3 (Cholinesterase (BCHE, Equus caballus, UniProt P81908); Ellman; equine serum BuChE; baseline: AChE IC50 over BuChE IC50).

For quick reference, copied from above:
NCCc1c[nH]c2ccc(O)cc12 has a Km of 120 ± 100 µM (AANAT1 cattle; substrate, DTNB colorimetric; together with: acetyl-CoA).
With CCCCCCCCCCCCc1ccc([C@H]2CC[C@H]([N+](C)(C)CCC)CC2)cc1.[I-] the Ki/Km ratio was 1.3 (SPHK1 (Homo sapiens, UniProt Q9NYA1); inhibitor, radiometric flash-plate; cell lysate; together with: sphingosine 10 µM).
The inhibition of O=C(Nc1cnccc1Cl)N1CCN(Cc2ccc3c(c2)OC(F)(F)O3)CC1 is reported as -8% (STK17A; kinase activity, inhibitor; 10 µM, human).
The agonist score of CC[C@H](C)[C@H]1O[C@]2(C=C[C@@H]1C)C[C@@H]1C[C@@H](C/C=C(\C)[C@@H](O[C@H]3C[C@H](OC)[C@@H](O[C@H]4C[C@H](OC)[C@@H](O)[C@H](C)O4)[C@H](C)O3)[C@@H](C)/C=C/C=C3\CO[C@@H]4[C@H](O)C(C)=C[C@@H](C(=O)O1)[C@]34O)O2 is reported as 0.86 (GABA-A receptor; alpha-1/beta-2/gamma-2 (Rattus norvegicus, UniProt P18508+P62813+P63138); membrane potential, agonist, QP-DHM fluorescence; HEK293 expressing GABAA; 10 µM; baseline: 10 µM GABA, direction not given).
The Km of C[C@H]1CCCC(=O)CCC/C=C/c2cc(O)cc(O)c2C(=O)O1 is reported as 88.5 ± 7.1 µM (lcc5 (Coprinopsis cinerea, UniProt Q6VMB9); substrate, HPLC; Coprinopsis cinerea, 0.1 M phosphate buffer; pH 7.5, 45 °C, no mediator).
The selectivity ratio of N#C[Se]CCCCOc1ccc2c(-c3ccccc3)cc(=O)oc2c1 is reported as greater than 338 (CA12 (Homo sapiens, UniProt O43570); stopped-flow CO2 hydration; baseline: Ki CA I over Ki CA XII).
